Measured values gathered from unrelated publications.
Cell line: K562

O=C(NO)c1ccc(Cn2sc3ccccc3c2=O)cc1 — IC50 (cell growth or viability, ATP luminescence; 72 h): 13.1 µM
COc1ccc(C[C@H]2COC(=O)[C@@H]2Cc2ccc(OCC(=O)Nc3ccc(C(=O)NO)cc3)c(OC)c2)cc1OC — IC50 (cell growth or viability, CCK-8; 48 h): > 5 µM
COc1cc(/C=C/C(=O)c2ccc(O)cc2O)ccc1O — IC50 (NF-κB activity, inhibitor, luciferase; TNF-stimulated): 38 µM
NC(=S)c1ccc(O)cc1 — IC50 (cell growth or viability, CCK-8; 72 h): > 200 µM
Cc1nc(Nc2ncc(C(=O)Nc3c(C)cccc3Cl)s2)cc(N2CCN(CCOC(=O)[C@@H](N)CCC(=O)O)CC2)n1 — IC50 (cell growth or viability, MTT; 72 h): < 5.12e-05 µM
COc1ccc(/C=C/C(=O)c2ccc(OC)cc2)cc1 — IC50 (NF-κB activity, inhibitor, luciferase; TNF-stimulated): > 200 µM
CC(C)=CCc1c2c(c(O)c3c(=O)c(-c4ccc(O)cc4)coc13)CC(C(C)(C)O)O2 (centres unmarked) — IC50 (cell growth or viability, MTT): 15.1 µM
COc1ccc(CCC(=O)c2c(O)cc(OC)cc2O)cc1 — IC50 (cell viability): 31 µM
C[C@H](CCC=O)[C@@H]1CC[C@]2(C)C3=C(CC[C@@]12C)[C@@]1(C)CC[C@H](O)C(C)(C)[C@@H]1CC3 — IC50 (cell growth or viability, SRB): 18.8 µM
CCCCn1cc(C(=O)O)c(=O)c2cc(F)c(Nc3ccccc3OC)c(N)c21 — IC50 (cell growth or viability, SRB; 72 h): 3.47 µg/mL
COc1ccc(/N=N/C(=S)N2CCCC2)cc1 — IC50 (cell growth or viability, resazurin; 48 h): 7 µM
O=C(CCc1ccc(O)cc1)c1c(O)cc(O)cc1O — IC50 (NF-κB activity, inhibitor, luciferase; TNF-stimulated): 41 µM
CCCCn1cc(C(=O)O)c(=O)c2cc(F)c(Nc3ccc(OC)cc3OC)c(N)c21 — IC50 (cell growth or viability, SRB; 72 h): 4.01 µg/mL
O=C(/C=C/c1ccc(O)c(O)c1)c1ccc(O)cc1O — IC50 (NF-κB activity, inhibitor, luciferase; TNF-stimulated): 38 µM
COc1ccc(C(C)(O)C(C)(C)C(=O)O)cc1 (centres unmarked) — IC50 (cell growth or viability; 72 h): > 200 µM
COc1ccc(/N=N/C(=S)N2CCOCC2)cc1 — IC50 (cell growth or viability, resazurin; 48 h): > 50 µM
OC[C@H]1[C@@H](O)[C@@H](O)CN1Cc1ccc(Br)cc1 — IC50 (cell growth or viability, MTS; 72 h): > 200 µM
CCCCn1cc(C(=O)O)c(=O)c2cc(F)c(Nc3ccc(OC)cc3)c(N)c21 — IC50 (cell growth or viability, SRB; 72 h): 1.4 µg/mL
COc1cc2c(NC3CCN(C(C)C)CC3)nc(N3CCC(F)(F)CC3)nc2cc1OCCCN1CCCC1 — IC50 (cell growth or viability, CCK-8; 7 days): > 10 µM
O=C(/C=C/c1ccccc1)c1ccc(O)cc1 — IC50 (cell viability): 16 µM
CC(C)=CCc1c(O)c(CC=C(C)C)c2occ(-c3ccc(O)c(O)c3)c(=O)c2c1O — IC50 (cell growth or viability, MTT): > 100 µM
CO[C@H]1C(=O)c2ccc(O)cc2O[C@@H]1c1ccc(O)c(O)c1 (relative stereo) — IC50 (cell growth or viability, MTT; 72 h): 74.4 µM
COc1ccc(C[C@H]2COC(=O)[C@@H]2Cc2ccc(OCCCCCCCCCC(=O)NO)c(OC)c2)cc1OC — IC50 (cell growth or viability, CCK-8; 48 h): > 5 µM
Cc1nc(Nc2ncc(C(=O)Nc3c(C)cccc3Cl)s2)cc(N2CCN(CCOC(=O)CCCCCCCCCCN)CC2)n1 — IC50 (cell growth or viability, MTT; 72 h): < 5.12e-05 µM
COc1ccc(/C=C/C(=O)c2ccccc2)cc1OC — IC50 (cell viability): 38 µM
O=C1c2ccc(O)cc2OC1(O)Cc1ccc(O)c(O)c1 (centres unmarked) — IC50 (cell growth or viability, MTT; 72 h): 129 µM
Cc1cccc(C)c1Nc1nn(C)c2nc(Nc3ccc4c(c3)CN(CC3CCN(c5ccc6c(c5)C(=O)N(C5CCC(=O)NC5=O)C6=O)CC3)CC4)ncc12 (centres unmarked) — IC50 (cell growth or viability, ATP luminescence; 5 days): ~0.0022 µM
COc1ccc(/C=C/C(=O)c2ccccc2)cc1 — IC50 (NF-κB activity, inhibitor, luciferase; TNF-stimulated): 29 µM
CCC(C)n1c(C(=O)Nc2cnc(C(=O)NC)n(CC(C)C)c2=O)ncc(NC(=O)c2ncc(NC(=O)c3ccccc3)c(=O)n2Cc2ccc(OC)cc2)c1=O (centres unmarked) — IC50 (cell growth or viability, ATP luminescence; 72 h): 1.3 µM

For quick reference, copied from above:
CCC(C)n1c(C(=O)Nc2cnc(C(=O)NC)n(CC(C)C)c2=O)ncc(NC(=O)c2ncc(NC(=O)c3ccccc3)c(=O)n2Cc2ccc(OC)cc2)c1=O (centres unmarked) — IC50 (cell growth or viability, ATP luminescence; 72 h): 1.3 µM
CC(C)=CCc1c2c(c(O)c3c(=O)c(-c4ccc(O)cc4)coc13)CC(C(C)(C)O)O2 (centres unmarked) — IC50 (cell growth or viability, MTT): 15.1 µM
